Published values of several laboratories.
Numbered parts are unrelated; each lists some results of a single study.

Series 1
Target: Interferon regulatory factor 5, full length, phosphomimetic (IRF5, Homo sapiens, UniProt Q13568-2, residues 1-514, S451D/S453D/S456D/S462D)
Method: protein-binding microarray
Form: double-stranded DNA, one strand shown
Medium: in vitro
Concentration: 940 nM top
Setting: 60-bp whole probe
Together with: salmon DNA 0.4 mg/ml
Reference: random background probes
Direction: higher = stronger binding
`GCCTAGCACTTAGGTATCCTTATGCTTTAGTGCTAGGTCTTGATTCGCTTGACGCTGCTG`: “fitted relative affinity” 0.147 z-score.
`GCCTAGCACATAGGTTCCGGTTTCGGTTAGTGCTAGGTCTTGATTCGCTTGACGCTGCTG` — result for “fitted relative affinity”: 8.59 z-score.
For `GCCTAGCACGACGGTATCGGGCCTGGGGACGTGCTAGTCTTGATTCGCTTGACGCTGCTG`, “fitted relative affinity” read 2.53 z-score.

Series 2
Target: Sal-like protein 4, full length isoform B (SALL4, Homo sapiens, UniProt Q9UJQ4-2, residues 1-616)
Method: universal PBM
Form: double-stranded DNA, one strand shown
Medium: in vitro
Concentration: not given
Setting: 8-mer, flanks averaged, mean of replicates
Direction: higher = stronger binding
`AACTAGCA` gave an E-score of -0.035.
For `ACATCAAC`, the E-score was 0.0413.
`AGCACACA` gave an E-score of -0.159.
`AGCGGAAA` gave an E-score of -0.122.

Series 3
Target: Centromere-binding protein 1, full length, His-tagged (CBF1, Saccharomyces cerevisiae, UniProt P17106, residues 1-351)
Chain of UniProt P17106 (whole entry, looked up): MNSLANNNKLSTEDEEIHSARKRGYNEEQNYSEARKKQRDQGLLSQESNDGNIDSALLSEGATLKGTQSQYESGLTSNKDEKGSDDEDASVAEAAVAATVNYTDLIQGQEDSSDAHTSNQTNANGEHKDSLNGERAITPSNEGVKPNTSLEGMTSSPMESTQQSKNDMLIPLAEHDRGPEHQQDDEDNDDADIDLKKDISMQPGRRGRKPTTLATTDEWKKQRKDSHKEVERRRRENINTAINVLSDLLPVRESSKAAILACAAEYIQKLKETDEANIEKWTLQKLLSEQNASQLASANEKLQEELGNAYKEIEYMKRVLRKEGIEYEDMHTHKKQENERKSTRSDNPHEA
Method: competition protein-binding microarray
Form: double-stranded DNA, one strand shown
Medium: in vitro
Concentration: 2 µM
Setting: whole 60-bp probe, lowest competitor level
Together with: Pho4 competitor, 0.05 µM
Direction: higher = stronger binding
Constant ends, left off below: … GTCTTGATTCGCTTGACGCTGCTG
`TCCAACTGAGTCCATCACGCAGGCACCAGAAGCTGC` has a fluorescence intensity of 82.1 a.u.
`TGCGCAACAACTTGTGAAGTGGGTGTATGTCTAGAA` has a fluorescence intensity of 69.5 a.u.
`CTAACGAAGGTTTGTCACTTAACTTACAAGCCAAGT` gave a fluorescence intensity of 76 a.u.
`GTCTTGTCTCATTGCTTCGTGGGTGTCCCCACTTCA` has a fluorescence intensity of 85 a.u.
With `TTGGACTTTAATGGGGGCGTGGGTATGTTTGGAGAC` the fluorescence intensity was 89.5 a.u.

Further values, each from its own experiment
`PhoQ, residues 284 288 289 292 302 303 SACGEM` has a fold induction of 2.59 (PhoP, residues 12 14 15 18 19 LQHIR (Escherichia coli, UniProt P23836); Sort-seq, item: YFP reporter; E. coli; PhoQ-PhoP variant library, together with: 10 µM Mg2+; reference: high Mg2+ state, higher = stronger signaling).

A few entries again (series 3):
`TGCGCAACAACTTGTGAAGTGGGTGTATGTCTAGAA` has a fluorescence intensity of 69.5 a.u.
